Experimental data gathered from unrelated publications.
Parts stem from different laboratories: compare values within a part only. Values joined by “and” are separate records of one study, mostly repeats; a detail may differ.

Block 1 — read-out: thermal unfolding; technique: differential scanning fluorimetry; tested at: 5.5 µM; reading: higher = more unfolded; endpoint: SYPRO Orange fluorescence
Compound: C[C@@H]1CN(c2ccc(-c3cc(C(=O)NCCOCCOCCOCCOCCNC(=O)Cn4cc(-c5[nH]cc(C(=O)N[C@@H](CC(N)=O)c6ccc(F)c(Cl)c6)c5-c5ccc(Cl)cc5F)cn4)ccc3F)cc2NC(=O)c2c[nH]c(=O)cc2C(F)(F)F)C[C@H](C)N1C
WDR5: WD repeat-containing protein 5 (WDR5, Homo sapiens, UniProt P61964)
DCAF1: DDB1- and CUL4-associated factor 1 (DCAF1, Homo sapiens, UniProt Q9Y4B6)
Sequence of UniProt Q9Y4B6 (whole entry, looked up): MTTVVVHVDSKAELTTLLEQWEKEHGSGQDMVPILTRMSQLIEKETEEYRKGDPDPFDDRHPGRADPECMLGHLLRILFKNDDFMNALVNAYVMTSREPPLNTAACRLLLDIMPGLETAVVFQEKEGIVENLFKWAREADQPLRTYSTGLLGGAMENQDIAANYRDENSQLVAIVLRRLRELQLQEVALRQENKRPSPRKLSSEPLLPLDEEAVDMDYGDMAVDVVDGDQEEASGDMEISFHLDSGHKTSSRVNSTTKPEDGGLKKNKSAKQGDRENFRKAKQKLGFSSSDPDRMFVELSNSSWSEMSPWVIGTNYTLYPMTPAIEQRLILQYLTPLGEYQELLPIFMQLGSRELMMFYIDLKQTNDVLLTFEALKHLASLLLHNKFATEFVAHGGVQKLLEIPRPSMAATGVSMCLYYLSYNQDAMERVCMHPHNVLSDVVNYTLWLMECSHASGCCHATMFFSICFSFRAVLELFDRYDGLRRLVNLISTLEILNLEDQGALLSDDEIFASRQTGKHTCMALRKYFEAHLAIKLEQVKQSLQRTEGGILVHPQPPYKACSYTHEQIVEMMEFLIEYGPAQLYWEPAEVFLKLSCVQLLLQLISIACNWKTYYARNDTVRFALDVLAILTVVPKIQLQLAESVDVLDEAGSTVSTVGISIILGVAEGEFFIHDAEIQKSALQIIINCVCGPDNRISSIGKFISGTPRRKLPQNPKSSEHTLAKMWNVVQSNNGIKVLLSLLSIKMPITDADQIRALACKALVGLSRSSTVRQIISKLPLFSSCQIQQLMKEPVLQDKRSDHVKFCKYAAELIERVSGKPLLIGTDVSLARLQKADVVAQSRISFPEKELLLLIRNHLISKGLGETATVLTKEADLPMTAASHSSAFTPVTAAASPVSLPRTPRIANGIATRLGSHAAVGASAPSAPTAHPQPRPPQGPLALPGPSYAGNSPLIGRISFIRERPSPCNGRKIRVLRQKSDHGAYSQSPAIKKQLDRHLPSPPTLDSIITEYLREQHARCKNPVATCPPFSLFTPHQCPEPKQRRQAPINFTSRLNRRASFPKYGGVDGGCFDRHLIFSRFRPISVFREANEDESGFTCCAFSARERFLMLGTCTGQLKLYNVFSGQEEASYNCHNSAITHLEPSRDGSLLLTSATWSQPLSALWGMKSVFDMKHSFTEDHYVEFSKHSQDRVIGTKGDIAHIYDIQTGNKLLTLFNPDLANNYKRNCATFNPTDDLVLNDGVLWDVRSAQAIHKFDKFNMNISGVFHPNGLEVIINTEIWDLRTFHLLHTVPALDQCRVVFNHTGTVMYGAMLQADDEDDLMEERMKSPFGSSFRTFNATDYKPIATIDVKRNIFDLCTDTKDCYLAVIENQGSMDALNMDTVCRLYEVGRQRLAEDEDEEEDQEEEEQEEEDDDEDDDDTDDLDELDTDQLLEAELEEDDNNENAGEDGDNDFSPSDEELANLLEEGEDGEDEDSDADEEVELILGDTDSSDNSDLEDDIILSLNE
WDR5; 66.61 °C: 7140 a.u.
DCAF1; 91.21 °C: 33900 a.u.
DCAF1; 61.61 °C: 46000 a.u.
DCAF1; 59.61 °C: 35900 a.u.
WDR5; 75.61 °C: 12200 a.u.
DCAF1; 46.8 °C: 13100 a.u.

Mixed results
PKMYT1: Membrane-associated tyrosine- and threonine-specific cdc2-inhibitory kinase (PKMYT1, Homo sapiens, UniProt Q99640)
Sequence of UniProt Q99640 (whole entry, looked up): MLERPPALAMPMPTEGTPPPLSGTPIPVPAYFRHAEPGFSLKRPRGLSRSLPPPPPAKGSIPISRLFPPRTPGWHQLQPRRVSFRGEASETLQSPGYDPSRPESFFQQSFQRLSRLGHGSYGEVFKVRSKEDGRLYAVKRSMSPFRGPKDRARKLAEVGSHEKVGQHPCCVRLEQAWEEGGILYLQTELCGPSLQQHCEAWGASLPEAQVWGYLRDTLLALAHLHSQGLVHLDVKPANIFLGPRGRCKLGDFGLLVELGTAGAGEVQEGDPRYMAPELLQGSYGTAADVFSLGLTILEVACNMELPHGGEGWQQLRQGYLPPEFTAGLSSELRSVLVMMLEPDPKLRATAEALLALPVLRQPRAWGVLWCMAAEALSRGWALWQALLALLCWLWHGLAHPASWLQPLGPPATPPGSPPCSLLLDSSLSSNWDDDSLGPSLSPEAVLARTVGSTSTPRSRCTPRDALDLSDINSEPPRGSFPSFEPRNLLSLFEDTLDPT
Cc1ccc(O)c(C)c1-c1cnc2[nH]c(-c3cnc(N4CCC(CN5CCN(c6ccc(NC7CCC(=O)NC7=O)cc6F)CC5)CC4)nc3)cc2c1C#N (centres unmarked)  phospho-CDK1 (Thr14) level (HCC1569; CDK1 Thr14 phosphorylation, in-cell western; 111.11 nM; lower = stronger inhibition): 76.7 a.u. and 65.4 a.u.
Cc1ncsc1-c1ccc(C(CO)NC(=O)C2CC(O)CN2C(=O)C(C(C)C)n2cc(-c3ccc(COc4c(-c5c(C)c(F)cc6[nH]ncc56)c(C5CC5)cc5c(N6CC7CC6CN7)nc(OC6CCOCC6)nc45)cc3)nn2)cc1 (centres unmarked)  plasma concentration (mouse PK-59 xenograft, plasma; intravenous, 10 mg/kg, 72 h): 2.06 ng/mL
Cc1ccc(O)c(C)c1-c1cnc2[nH]c(-c3cnc(N4CCC(CCN5CCN(c6ccc(N7CCC(=O)NC7=O)cc6F)CC5)CC4)nc3)cc2c1C#N  inhibition (PKMYT1; binding, HTRF; 12.35 nM): 94% and 94.3%
Cc1ncsc1-c1ccc(C(CO)NC(=O)C2CC(O)CN2C(=O)C(NC(=O)c2ccc(COc3c(-c4c(C)c(F)cc5[nH]ncc45)c(C4CC4)cc4c(N5CC6CC5CN6)nc(OC5CCOCC5)nc34)cc2)C(C)C)cc1 (centres unmarked)  phospho-ERK1/2 level (AsPC-1; in-cell ELISA; 1 µM, per-experiment values): 5.03% and 11.3% and 4.46%
Cc1ccc(O)c(C)c1-c1cnc2[nH]c(-c3cnc(N4CCC(CCN5CCN(c6cc7c(cc6F)c(N6CCC(=O)NC6=O)nn7C)CC5)CC4)nc3)cc2c1C#N  inhibition (PKMYT1; binding, HTRF; 12.35 nM): 90.7% and 91.9%
Cc1ncsc1-c1ccc(C2(NC(=O)C3CC(O)CN3C(=O)C(NC(=O)c3ccc(COc4c(-c5c(C)c(F)cc6[nH]ncc56)c(C5CC5)cc5c(N6CC7CC6CN7)nc(OC6CCOCC6)nc45)cc3)C(C)(C)C)CC2)cc1 (centres unmarked)  phospho-ERK1/2 level (AsPC-1; in-cell ELISA; 300 nM, per-experiment values): 64.7% and 57.5% and 95.2%
Cc1ccc(O)c(C)c1-c1cnc2[nH]c(-c3cnc(N4CCC5(CC4)CC(N4CCN(c6ccc(NC7CCC(=O)NC7=O)cc6F)CC4)CO5)nc3)cc2c1C#N (centres unmarked)  phospho-CDK1 (Thr14) level (HCC1569; CDK1 Thr14 phosphorylation, in-cell western; 111.11 nM; lower = stronger inhibition): 92.9 a.u. and 89.7 a.u.
Cc1nc(C)c(C=[N+]([O-])C(C)(C)C)nc1C  TFAM protein level (Western blot; MPTP mouse model, substantia nigra cytosol; 30 mg/kg, unit not given; reference: β-actin): 91.5 and 107 and 116 and 101
